Measurements gathered from unrelated publications.
Every numbered part comes from another study and shows a few of its results, in no order.

Sample 1
Target: Interferon regulatory factor 7, full length, phosphomimetic (IRF7, Homo sapiens, UniProt Q92985, residues 1-503, S471D/S472D/S475D/S476D/S477D/S483D/S484D/S487D)
Sequence of UniProt Q92985 (whole entry, unmodified, looked up): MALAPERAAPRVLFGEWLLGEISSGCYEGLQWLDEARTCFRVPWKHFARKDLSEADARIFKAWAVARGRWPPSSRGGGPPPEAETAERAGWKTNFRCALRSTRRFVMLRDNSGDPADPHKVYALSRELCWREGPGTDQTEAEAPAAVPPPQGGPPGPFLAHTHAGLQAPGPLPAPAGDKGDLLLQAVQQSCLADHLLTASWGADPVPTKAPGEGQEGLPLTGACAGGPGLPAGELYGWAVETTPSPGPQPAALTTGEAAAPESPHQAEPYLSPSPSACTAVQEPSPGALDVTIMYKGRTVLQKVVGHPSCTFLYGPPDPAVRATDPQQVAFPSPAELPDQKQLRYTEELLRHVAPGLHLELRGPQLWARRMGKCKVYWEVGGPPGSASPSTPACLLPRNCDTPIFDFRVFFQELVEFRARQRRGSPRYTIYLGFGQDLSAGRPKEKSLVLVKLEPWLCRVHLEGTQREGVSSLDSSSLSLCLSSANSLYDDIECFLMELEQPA
Method: protein-binding microarray
Molecule type: double-stranded DNA, one strand shown
Matrix: in vitro
Concentration: 2200 nM top
Setting: 60-bp whole probe
Added: salmon DNA 0.4 mg/ml
Reference: random background probes
Direction: higher = stronger binding
Shared flanks, not repeated: GCCTAGCAC … GTCTTGATTCGCTTGACGCTGCTG
For `TTAGGTTACGGTTTCGGTTAGTGCTAG`, “fitted relative affinity” read 6.7 z-score.
Under “fitted relative affinity”, `GCCCATCTCTGCTCCTTCTGGTGCTAG` is recorded as 0.994 z-score.
Under “fitted relative affinity”, `TTAGATATCAGCCTCGATTAGTGCTAG` is recorded as 0.186 z-score.
`GACGATTTCGGGTTTCGAGAAGTGCTA`: “fitted relative affinity” 4.65 z-score.
`TCACTTCTCCCTTTCAGTTTGTGCTAG`: “fitted relative affinity” 4.94 z-score.
`TTAGGACTGGGGGCTGGGTTAGTGCTA`: “fitted relative affinity” 0.114 z-score.
`TGTAGCTGGAGAAGTAAAACGTGCTAG` — result for “fitted relative affinity”: -0.757 z-score.
`AGGACCATCCCTTATAAATAGGTGCTA`: “fitted relative affinity” -0.0895 z-score.
`GACGGGATCGGGTATCGGGACGTGCTA` — result for “fitted relative affinity”: -0.708 z-score.
`TTAGGACTGCTTAACCTTTAGTGCTAG`: “fitted relative affinity” 0.0243 z-score.
`GACGGTCTCATACTGCTGACGTGCTAG` — result for “fitted relative affinity”: 0.298 z-score.
`TGCCCTCTCCATACTTCCCAGTGCTAG` — result for “fitted relative affinity”: 1.76 z-score.
`GACGGTTTCGAAACTGGGGACGTGCTA`: “fitted relative affinity” 3.37 z-score.
`GACGGACTGAGACTGGGGACGTGCTAG`: “fitted relative affinity” -0.437 z-score.
Under “fitted relative affinity”, `TCAACTCCCTCTCTGGCACTGTGCTAG` is recorded as 0.816 z-score.
For `AAATGATTGGTTGAACATGAGTGCTAG`, “fitted relative affinity” read -0.217 z-score.
For `TCATTTCTAATGTTTTTTACTGTGCTA`, “fitted relative affinity” read 1.31 z-score.
`GTCGGACTGCTTCTCCTGACGTGCTAG`: “fitted relative affinity” 0.953 z-score.
For `GGCGGTTTCCTACTGCTGACGTGCTAG`, “fitted relative affinity” read 1.05 z-score.
Under “fitted relative affinity”, `TGGGCTACCGGGTCCCTCTTGTGCTAG` is recorded as -1.12 z-score.
For `GACGTTATCGACACTGGGGACGTGCTA`, “fitted relative affinity” read 0.151 z-score.
For `TTAGGTTTCGACTTTCGGTTCGTGCTA`, “fitted relative affinity” read 15.2 z-score.
Under “fitted relative affinity”, `GACGAACTGGGTATCGGGACGTGCTAG` is recorded as -0.345 z-score.
Under “fitted relative affinity”, `TTAGGTTCCCCTTTCCTTTAGTGCTAG` is recorded as 2.73 z-score.
`GACGGACTGGTCTTTCGGGACGTGCTA`: “fitted relative affinity” 0.438 z-score.

Sample 2
Target: RING finger protein unkempt homolog, zinc fingers 1-6, GST-SBP tag (UNK, Homo sapiens, UniProt Q9C0B0, residues 30-357)
Sequence of UniProt Q9C0B0 (30-357, looked up): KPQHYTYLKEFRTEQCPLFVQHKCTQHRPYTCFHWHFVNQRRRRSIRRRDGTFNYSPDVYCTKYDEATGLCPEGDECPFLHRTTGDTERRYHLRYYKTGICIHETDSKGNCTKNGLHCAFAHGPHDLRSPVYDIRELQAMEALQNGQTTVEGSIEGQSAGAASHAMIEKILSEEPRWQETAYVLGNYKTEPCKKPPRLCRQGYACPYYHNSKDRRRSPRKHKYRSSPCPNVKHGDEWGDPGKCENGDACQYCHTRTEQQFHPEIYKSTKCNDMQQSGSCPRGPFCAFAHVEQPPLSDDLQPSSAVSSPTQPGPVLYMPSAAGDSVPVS
Method: RNA Bind-n-Seq
Molecule type: RNA
Matrix: in vitro
Concentration: not given
Setting: RNA with constant flanks, human-mouse chimeric sites, ends assumed
Reference: input RNA pool
Direction: higher = stronger binding
`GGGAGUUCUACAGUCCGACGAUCUCCCAAAUCCAGCAGCUAGAAGGAGCCAAUUGUUUGUCACUCCACACACAGGGAAGGCAAUAGCUUUGUACAUUGGUUUACAUUUUUUCCCCCUGUGGAUUUUUCUAGAGGUCAUAGUGCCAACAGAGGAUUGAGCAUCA` has a bound/input enrichment of 0.636 ratio.
For `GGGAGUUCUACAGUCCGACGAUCGGCCUGGGACCGUCCUGGGCUAGUACAAUAGCGGCAGGUGGAGGCUCGAGAGGAAAGUUGUUAGUGGGAGGCAGUGGUAGAGGCCGUCAUGUACGGUCCUUUACUCGAUAGAUGUGUUCUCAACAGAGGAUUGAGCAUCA`, the bound/input enrichment was 0.528 ratio.
With `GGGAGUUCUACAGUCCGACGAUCUAAGUUAUUUUGUACAGCUUUGUAAAUUCUUAACAUUUUUAUAUUGCCAUGUUUAUUUUGUUUGGGUAAUUUGGUUCAUUAAGUACAAAACCAAAUAAAUGAACAUCGUAAUUAUAGAUUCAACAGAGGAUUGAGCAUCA` the bound/input enrichment was 0.561 ratio.
`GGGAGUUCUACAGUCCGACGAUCUAAGUUAUUUUGUACAGUAAGUUAUUUUCUUAACAUUUUUAUAUUGCCAUGUUUAUUUUGUUUGGGUAAUUUGGUUCAUACAUGGCCUAGCUAAGGUAAUGAACAUCUUUUUCAGUAAUUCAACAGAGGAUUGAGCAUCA` has a bound/input enrichment of 2.34 ratio.
`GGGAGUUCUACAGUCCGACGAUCUCUGGUCACACUCGUGUGUAUGGUGUUUGCUUUGUGGACACUUCACUGGGCAAGUUUUUCAUCGGCCAGUUUUCGGAUGAUCGCCAUUGUUCCAGAUUUAGGACGCUAGUGGCACACUAUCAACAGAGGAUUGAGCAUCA` has a bound/input enrichment of 0.192 ratio.
The bound/input enrichment of `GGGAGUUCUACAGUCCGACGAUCGAUCAUGAACCACCAUCAGAAAUGAAGAUGAGAUUACCCAGACGAGCCCAAAACCGCGCGCUACAGAAAAGUAAACUUUAACCUUGCGAGUUCCUUAAUGAAGAUACAAGUUAAGAGAGCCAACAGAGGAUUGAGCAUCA` is reported as 0.197 ratio.
`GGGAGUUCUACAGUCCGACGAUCAACUUCGUGCAUCGGUUUCCCUUUGUAGCUGUUUCAAUUGGCUUCCUUGUGAAUAAAAAGAUAGAAUUUGGAAUUGUGUACAGCUGUGUGGAAGAUAAGAUGUACACCGGCAGGAAAGGGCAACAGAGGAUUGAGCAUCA` has a bound/input enrichment of 3.61 ratio.
`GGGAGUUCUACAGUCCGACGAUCCGCGUCCCCUUCUCGCUGCGGAGCCCGAGCUGGGAACCAUUCCGGGACUGGUACCCUGCACACAGCCGCCUCUUCGAUCAAGCUUUCGGGGUGCCCCGGUUGCCCGAUGAGUGGUCGCAGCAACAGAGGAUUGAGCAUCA` gave a bound/input enrichment of 0.0818 ratio.
The bound/input enrichment of `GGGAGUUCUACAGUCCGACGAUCAAAGAGUGGAUAGAGUGUGCACACGGGAUCGGUGGGACCCGGGCGAAAAAGGAGUGCAAGAUAGAGUAUGAUGAUUUCGAAGAGUGCUUGCUUCGGUACAAAACGAUGAGGCGAAUGCAUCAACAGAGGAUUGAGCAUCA` is reported as 0.664 ratio.
`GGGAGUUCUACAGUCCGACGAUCGCUCUUGGGAAUGUAAUAAGUGCCUUGGGGGACAAGAGCAAGAGAGCCACCCAUGUCCCUUACAGAGACUCUAAGCUAACAAGACUAUUGCAGGAUUCCCUUGGGGGUAACAGCCAAACCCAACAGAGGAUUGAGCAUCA` gave a bound/input enrichment of 0.147 ratio.
`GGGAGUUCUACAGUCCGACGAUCGCUCCUCCCCGCUCUGCAGCCUGGGGACACUGGGCUGGGACCAGAAUCCAGCUUUCUUUUAAAACUCUAUAUUUUUUUGUAUCCCGUGACAUUUCAUUUUUUUUUUAUAGUGUAUUUUUUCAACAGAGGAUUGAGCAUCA` has a bound/input enrichment of 20.6 ratio.

Sample 3
Target: RNA binding protein fox-1 homolog 2, RRM domain, GST-SBP tag (RBFOX2, Homo sapiens, UniProt O43251-10, residues 100-194)
Method: RNA Bind-n-Seq
Molecule type: RNA
Matrix: in vitro
Concentration: 365 nM
Setting: natural RNA segment, single round, ends assumed
Reference: no-protein control
Direction: higher = stronger binding
Target sequence (chain): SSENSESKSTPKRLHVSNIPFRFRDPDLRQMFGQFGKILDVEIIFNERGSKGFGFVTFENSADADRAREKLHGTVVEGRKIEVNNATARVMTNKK
`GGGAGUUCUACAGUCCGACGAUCUGGAAAAAGGACACAGAAUGGGGCUUGUGGGAAAGACCGGGACAAUAAAGCCCACCAUGUAAACCAAAUGACUGUUAGUCUCUGAGAGCCUUCAUGCGCCACCACUCAAGUGGAAUUCUCGGGUGCCAA` — result for “RBNS enrichment (R)”: 0.613.
Under “RBNS enrichment (R)”, `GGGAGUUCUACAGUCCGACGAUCAAAGGAGGGUGGUAGGUACCAAGAACCAGUGGAGGGGACCCUGAGCUGGCAAGAGUAAGCCCCAUCUCCUGCUCUGGCAAAGCCUGGCUCCUGGAGUACCUCACUCUGCCUGGAAUUCUCGGGUGCCAA` is recorded as 0.45.
`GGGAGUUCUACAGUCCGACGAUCACAGUGUUGUUUGCCUUGCUCACUUGUAACCCCCUCCUCGGAUCUAGGAGAAUGGGAGGAGGGUCUCGUGGAAAUGUAGCUAUUGGAUCUUUCCUGCACUUAUGGAAAUGUGGAAUUCUCGGGUGCCAA` — result for “RBNS enrichment (R)”: 0.979.
`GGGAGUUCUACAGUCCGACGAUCGGGGUUUGGUUUGGCUCCUCUGUGUGUGUCCGUAUCUUGUUCGGUGUCCUCGAGGUUGAGCUUCACUCCACUGCGGCAGAGGCAGCGUGCACACUCGGAUUUGCUACGUUUGGAAUUCUCGGGUGCCAA`: “RBNS enrichment (R)” 0.952.
`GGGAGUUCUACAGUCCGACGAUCGAAGGCUAUGCCAGGGAAUCUGGCUCAAAGCCUAACACAGAAGCAGCUUCAUCCCAGUGACGAUGCUGGACGUACAGAUGGUGAUGGCAAAGGUGUAGAACACAUUUUUUUGGAAUUCUCGGGUGCCAA`: “RBNS enrichment (R)” 0.274.
Under “RBNS enrichment (R)”, `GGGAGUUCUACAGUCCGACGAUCAGGGUUAUGAGCCUACUGGAUUGAGGUUAAAAUCCAAGAACCAACAUUUAGAGCUUUGUGCUUUUCUCUCAUUCCAUCACUUUGUAAUGAUGAUACUUAACAUGAGCAGGUGGAAUUCUCGGGUGCCAA` is recorded as 0.438.
`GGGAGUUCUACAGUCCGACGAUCCUUAGGCAAGUUCUUGGAGUCUGCUCCCAGAUGGCAUCGGCUCUGAGAUACCGGUUACUUCCCUGGUCCUGAGAGUCACCUGUGGUCACCCCUCUUCCCAGGCCUGACUUUGGAAUUCUCGGGUGCCAA` — result for “RBNS enrichment (R)”: 0.299.
`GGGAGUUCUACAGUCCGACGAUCCUGCAGAACAGCUUUUGAAGAUACUGGGGGGUAUCUUCAAGCCUCAGAGCAGCUUGUUUCAGAUAGAAAUUCUCUAUGGGUUGAAAUGCCAAAAACAGAAAACAUGAUGUUGGAAUUCUCGGGUGCCAA`: “RBNS enrichment (R)” 1.55.
Under “RBNS enrichment (R)”, `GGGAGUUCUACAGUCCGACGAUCUAUUGCUCGUUCUAACUGUAAAGAAACCAAGAAAUAAUACAAGCUGGGGAAAAGAGAUGUCUUAAUUAGGGUCCUAUUGCUGUGAUGAAACAAAAUGACCAAACUCACGGUGGAAUUCUCGGGUGCCAA` is recorded as 0.558.
`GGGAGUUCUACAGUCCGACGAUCAGAAAAAGGCUGUGGAUUCUUUGAGGACAUCACUAGAAAUCAUUCUUUGUCUCAAGUUCACACUCUUAGCAUAGAAUAUUAUUGACUAGGCUGUAUGACAUUUUGAGCUCUGGAAUUCUCGGGUGCCAA` — result for “RBNS enrichment (R)”: 0.304.
Under “RBNS enrichment (R)”, `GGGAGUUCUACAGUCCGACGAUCCAGCCUGGGGGGGUUCUGAGCAGUGCCUCUUGUCUUGGAGACAGACCUGGUGCCUGGCGCUGCCUUCAGCAGGCAGCAGGCAGCCUCCUGCACACUGGCUUUUUUAGUCAUGGAAUUCUCGGGUGCCAA` is recorded as 0.927.
`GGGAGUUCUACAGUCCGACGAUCCCUCUAAGACAUAUGUAUUUCACACUAGAUGGCGUCGGACAUUGCCAUAUCUCCUGUGGCACCUAGGCAGCCCAAUCUCAGGGUUAGUUUUUUCCAGGGAAAACAAUGUGUGGAAUUCUCGGGUGCCAA` — result for “RBNS enrichment (R)”: 0.38.

Sample 4
Target: Histone acetyltransferase KAT6A, winged helix 1, GST fusion (KAT6A, Homo sapiens, UniProt Q92794, residues 1-85)
Method: protein binding microarray
Molecule type: double-stranded DNA, one strand shown
Matrix: in vitro
Concentration: not given
Setting: 8-mer, flanks averaged, mean of 2 arrays, mostly near background
Reference: not given
Direction: higher = stronger binding
Residues (chain): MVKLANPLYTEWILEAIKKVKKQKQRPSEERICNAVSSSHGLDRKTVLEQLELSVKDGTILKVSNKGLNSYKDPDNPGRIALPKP
With `ATTTCTAG` the E-score was -0.051.
`ACAAACGG` has an E-score of 0.0913.
For `ATACCATA`, the E-score was -0.237.
With `CCTCTAGC` the E-score was -0.149.
`GGATCGCA` has an E-score of 0.00281.
`CAGCTGTA` gave an E-score of -0.133.
`CCAACCGG` gave an E-score of 0.0276.
The E-score of `AGAAAAAT` is reported as -0.211.
For `AGAAACCT`, the E-score was -0.126.
The E-score of `ACGAGAAT` is reported as -0.163.
For `AGAGGTGG`, the E-score was -0.199.
The E-score of `GCCTTGAA` is reported as -0.21.
With `TAGGTATA` the E-score was -0.0549.
`TGTATAAA` has an E-score of -0.0688.
With `GGGTCGAA` the E-score was -0.113.
`CTACTGAC` gave an E-score of -0.0395.

For quick reference, copied from above (sample 4):
`CAGCTGTA` gave an E-score of -0.133.
`CCAACCGG` gave an E-score of 0.0276.
The E-score of `AGAAAAAT` is reported as -0.211.
For `AGAAACCT`, the E-score was -0.126.
The E-score of `ACGAGAAT` is reported as -0.163.
For `AGAGGTGG`, the E-score was -0.199.
The E-score of `GCCTTGAA` is reported as -0.21.
With `TAGGTATA` the E-score was -0.0549.
